Published values collected from several papers.
Compare with care: the assays were run in different laboratories. ± marks the error that the study gave.

| Structure (SMILES) | assay | test system | setting | quantity | value |
| --- | --- | --- | --- | --- | --- |
| Oc1ccc2ccc3c4ccccc4cc4ccc1c2c43 | UPLC-AMS | human, plasma | oral, 100 ng of [14C]-BaP | AUC(0-inf) | 30.7 ± 19.6 fg BaP equivalents·h/mL |
| CN[C@@](C)(C[18F])C(=O)O |  | SCID mouse MDA-MB-468 xenograft, spleen | 15 min, post injection | tissue uptake | 12 ± 1.7 %ID/g |
| C[C@H]1O[C@@H](O[C@H]2[C@@H](O)C[C@H](O[C@H]3[C@@H](O)C[C@H](O[C@H]4CC[C@@]5(C)[C@H](CC[C@@H]6[C@@H]5C[C@@H](O)[C@]5(C)[C@@H](C7=CC(=O)OC7)CC[C@]65O)C4)O[C@@H]3C)O[C@@H]2C)C[C@H](O)[C@@H]1O |  | healthy volunteers, plasma | dose not given, with: 2D regimen | AUC(0-inf) | 0.0375 µg·h/mL |
| CC[C@@]1(O)C(=O)OCc2c1cc1n(c2=O)Cc2cc3c(CN(C)C)c(O)ccc3nc2-1 |  | human, plasma | oral, 8 mg, patients | AUC(0-inf) | 0.157 µg·h/mL |
| CN(C)CCC[C@@]1(c2ccc(F)cc2)OCc2cc(C#N)ccc21 |  | healthy volunteers, plasma | dose not given, with: 2D regimen | AUC(0-inf) | 0.209 µg·h/mL |
| CC(C)[C@H]1C(=O)N[C@@H](CCCN=C(N)N)C(=O)NCC(=O)N[C@@H](CC(=O)O)C(=O)N[C@H](Cc2ccccc2)C(=O)N1C |  | female NMRI mice, plasma | intravenous bolus, 2.5 mg/kg | AUC(0-inf) | 0.781 µg·h/mL |
| Cc1cc(C(C#N)c2ccc(Cl)cc2)c(Cl)cc1NC(=O)c1cc(I)cc(I)c1O (stereo not drawn) |  | parasitized lambs, plasma | subcutaneous, 5 mg/kg, with: moxidectin 0.2 mg/kg subcutaneous | AUC(0-inf) | 68100 ± 19700 µg·h/mL |
| COc1ccc(C[C@@H]2NC(=O)[C@H]([C@@H](C)O)NC(=O)[C@@H]3[C@@H]4CCN3C(=O)[C@@H]3Cc5cn(c6ccc(F)cc56)CCCCCCN(Cc5ccc(cc5)CCNC(=O)[C@]5(C)CCCN5C2=O)C(=O)CCC(=O)N[C@@H](C)C(=O)N[C@H](CNC(=O)CCCCC[N+](C)(C)C)C(=O)N[C@@H](Cc2cccc(c2)CNC(=O)CO4)C(=O)N3)cc1 |  | fasted healthy humans, plasma | oral, 10 mg single dose, with 1800 mg Labrasol, geometric mean | AUC(0-inf) | 0.259 µM·h |
| O=c1[nH]c(Cc2ccccn2)nc2c1cnn2C1CCOCC1 |  | male human, plasma | oral, 5 mg, single dose | AUC(0-inf) | 0.0767 µM·h |
| c1cc([C@H]2CC[C@]3(CC2)OO[C@]2(O3)C3CC4CC(C3)CC2C4)ccc1OCCN1CCOCC1 |  | human, plasma | oral, 800 mg, single dose, fasted | AUC(0-inf) | 8.08 µg·h/mL |
| O[C@H]1CCCN[C@@H]1CCCn1cnc2c(Cl)c(Cl)ccc21 |  | human, plasma | oral, 100 mg single dose, capsule, geometric mean | AUC(0-inf) | 0.639 µg·h/mL |
| CC[C@H](C)[C@H](NC(=O)[C@H](CC(C)C)NC(=O)[C@H](Cc1c[nH]c2ccccc12)NC(=O)[C@H](CCC(N)=O)NC(=O)[C@@H](NC(=O)[C@H](Cc1ccccc1)NC(=O)[C@H](C)NC(=O)[C@H](CCCCNC(=O)COCCOCCNC(=O)COCCOCCNC(=O)CC[C@H](NC(=O)CCCCCCCCCCCCCCCCCCC(=O)O)C(=O)O)NC(=O)[C@H](CCC(N)=O)NC(=O)[C@H](C)NC(=O)[C@@H](NC(=O)[C@H](CCCCN)NC(=O)[C@H](CC(=O)O)NC(=O)[C@H](CC(C)C)NC(=O)C(C)(C)NC(=O)[C@@H](NC(=O)[C@H](CO)NC(=O)[C@H](Cc1ccc(O)cc1)NC(=O)[C@H](CC(=O)O)NC(=O)[C@H](CO)NC(=O)[C@@H](NC(=O)[C@H](Cc1ccccc1)NC(=O)[C@@H](NC(=O)CNC(=O)[C@H](CCC(=O)O)NC(=O)C(C)(C)NC(=O)[C@@H](N)Cc1ccc(O)cc1)[C@@H](C)O)[C@@H](C)O)[C@@H](C)CC)[C@@H](C)CC)C(C)C)C(=O)N[C@@H](C)C(=O)NCC(=O)NCC(=O)N1CCC[C@H]1C(=O)N[C@@H](CO)C(=O)N[C@@H](CO)C(=O)NCC(=O)N[C@@H](C)C(=O)N1CCC[C@H]1C(=O)N1CCC[C@H]1C(=O)N1CCC[C@H]1C(=O)N[C@@H](CO)C(N)=O |  | human, normal hepatic function, plasma | subcutaneous, 5 mg single dose, geometric mean | AUC(0-inf) | 84.3 µg·h/mL |

Excerpt of the above:
| Structure (SMILES) | assay | test system | setting | quantity | value |
| --- | --- | --- | --- | --- | --- |
| O=c1[nH]c(Cc2ccccn2)nc2c1cnn2C1CCOCC1 |  | male human, plasma | oral, 5 mg, single dose | AUC(0-inf) | 0.0767 µM·h |
